# Measured values collected from several papers.
# Each line is one published result; not all experiments were run side by side. Numbers after ± are the reported error.
# FGFR3 isoform IIIc: FGFR3 isoform IIIc (unknown, UniProt Q61851)
# B1: TIMP3 24-144 (Homo sapiens, UniProt P35625); sequence looked up; chain CTCSPSHPQDAFCNSDIVIRAKVVGKKLVKEGPFGTLVYTIKQMKMYRGFTKMPHVQYIHTEASESLCGLKLEVNKYQYLLTGRVYDGKMYTGLCNFVERWDQLTLSQRKGLNYRYHLGCN
# B2: MICU2 (Homo sapiens, UniProt Q8IYU8); sequence looked up; chain AVSRQAVRSPGPLAAAVAGAALAGAGAAWHHSRVSVAARDGSFTVSAQKNVEHGIIYIGKPSLRKQRFMQFSSLEHEGEYYMTPRDFLFSVMFEQMERKTSVKKLTKKDIEDTLSGIQTAGCGSTFFRDLGDKGLISYTEYLFLLTILTKPHSGFHVAFKMLDTDGNEMIEKREFFKLQKIISKQDDLMTVKTNETGYQEAIVKEPEINTTLQMRFFGKRGQRKLHYKEFRRFMENLQTEIQEMEFLQFSKGLSFMRKEDFAEWLLFFTNTENKDIYWKNVREKLSAGESISLDEFKSFCHFTTHLEDFAIAMQMFSLAHRPVRLAEFKRAVKVATGQELSNNILDTVFKIFDLDGDECLSHEEFLGVLKNRMHRGLWVPQHQSIQEYWKCVKKESIKGVKEVWKQAGKGLF
# B3: actS 27-251 (Escherichia coli, UniProt Q46798); chain GSHMSGSKSSDTGTYSGSVYTVKRGDTLYRISRTTGTSVKELARLNGISPPYTIEVGQKLKLGGAKSSSITRKSTAKSTTKTASVTPSSAVPKSSWPPVGQRCWLWPTTGKVIMPYSTADGGNKGIDISAPRGTPIYAAGAGKVVYVGNQLRGYGNLIMIKHSEDYITAYAHNDTMLVNNGQSVKAGQKIATMGSTDAASVRLHFQIRYRATAIDPLRYLPPQGSKPKC
# B4: FGF6 (Homo sapiens, UniProt P10767); chain SPAGTRANNTLLDSRGWGTLLSRSRAGLAGEIAGVNWESGYLVGIKRQRRLYCNVGIGFHLQVLPDGRISGTHEENPYSLLEISTVERGVVSLFGVRSALFVAMNSKGRLYATPSFQEECKFRETLLPNNYNAYESDLYQGTYIALSKYGRVKRGSKVSPIMTVTHFLPRI
# B5: U2AF1 (Homo sapiens, UniProt Q01081); chain MAEYLASIFGTEKDKVNCSFYFKIGACRHGDRCSRLHNKPTFSQTIALLNIYRNPQNSSQSADGLRCAVSDVEMQEHYDEFFEEVFTEMEEKYGEVEEMNVCDNLGDHLVGNVYVKFRREEDAEKAVIDLNNRWFNGQPIHAELSPVTDFREACCRQYEMGECTRGGFCNFMHLKPISRELRRELYGRRRKKHRSRSRSRERRSRSRDRGRGGGGGGGGGGGGRERDRRRSRDRERSGRF
# B6: L3MBTL3 1-523 (Homo sapiens, UniProt Q96JM7-2); sequence looked up; chain MTESASSTSGQEFDVFSVMDWKDGVGTLPGSDLKFRVNEFGALEVITDENEMENVKKATATTTWMVPTAQEVFSEKTGMPFRLKDPVKVEGLQFCENCCQYGNVDECLSGGNYCSQNCARHIKDKDQKEERDVEEDNEEEDPKCSRKKKPKLSLKADTKEDGEERDDEMENKQDVRILRGSQRARRKRRGDSAVLKQGLPPKGKKAWCWASYLEEEKAVAVPAKLFKEHQSFPYNKNGFKVGMKLEGVDPEHQSVYCVLTVAEVCGYRIKLHFDGYSDCYDFWVNADALDIHPVGWCEKTGHKLHPPKGYKEEEFNWQTYLKTCKAQAAPKSLFENQNITVIPSGFRVGMKLEAVDKKNPSFICVATVTDMVDNRFLVHFDNWDESYDYWCEASSPHIHPVGWCKEHRRTLITPPGYPNVKHFSWDKYLEETNSLPAPARAFKVKPPHGFQKKMKLEVVDKRNPMFIRVATVADTDDHRVKVHFDGWNNCYDYWIDADSPDIHPVGWCSKTGHPLQPPLSPLE
# B7: RAD30 (Saccharomyces cerevisiae, UniProt Q04049); sequence looked up; chain MSKFTWKELIQLGSPSKAYESSLACIAHIDMNAFFAQVEQMRCGLSKEDPVVCVQWNSIIAVSYAARKYGISRMDTIQEALKKCSNLIPIHTAVFKKGEDFWQYHDGCGSWVQDPAKQISVEDHKVSLEPYRRESRKALKIFKSACDLVERASIDEVFLDLGRICFNMLMFDNEYELTGDLKLKDALSNIREAFIGGNYDINSHLPLIPEKIKSLKFEGDVFNPEGRDLITDWDDVILALGSQVCKGIRDSIKDILGYTTSCGLSSTKNVCKLASNYKKPDAQTIVKNDCLLDFLDCGKFEITSFWTLGGVLGKELIDVLDLPHENSIKHIRETWPDNAGQLKEFLDAKVKQSDYDRSTSNIDPLKTADLAEKLFKLSRGRYGLPLSSRPVVKSMMSNKNLRGKSCNSIVDCISWLEVFCAELTSRIQDLEQEYNKIVIPRTVSISLKTKSYEVYRKSGPVAYKGINFQSHELLKVGIKFVTDLDIKGKNKSYYPLTKLSMTITNFDIIDLQKTVVDMFGNQVHTFKSSAGKEDEEKTTSSKADEKTPKLECCKYQVTFTDQKALQEHADYHLALKLSEGLNGAEESSKNLSFGEKRLLFSRKRPNSQHTATPQKKQVTSSKNILSFFTRKK
Substance,tested on,assay,system,conditions,scale,measurement,value
"Syt1 (Mus musculus, UniProt P46096)","Psen1 (Mus musculus, UniProt P49769)",FLIM FRET,young mouse primary neurons,"15 min, added: KCl 50 mM","reference: no KCl, higher = more FRET",FRET efficiency change,1.85 fold
"FGF2 fragment C78S/C96S, C-terminal KCK, vcMMAE on Cys (Homo sapiens)","FGFR1 extracellular domain, Fc fusion 22-376 (UniProt P11362)","cell viability, Alamar Blue",U2OS-R1,96 h,,EC50,0.0167 µM
FGF8b (Homo sapiens),FGFR3 isoform IIIc,"cell proliferation, MTT",BaF3-FGFR3c,"20 nM, 48 h, added: completely desulfated heparin 4.9 µg/mL","reference: FGF 1 with heparin, higher = more proliferation",cell proliferation,67%
B1 (TIMP3 24-144),"ADAMTS4 213-575 (Homo sapiens, UniProt O75173)","inhibitor, steady-state kinetics",,"18 h, pH 7.5, 37 °C, tight-binding fit",,Ki,0.0001 µM
B2 (MICU2),"MICU1 C463S (Homo sapiens, UniProt Q9BPX6)",co-IP,HEK,,"reference: MICU1-FLAG, higher = weaker precipitation",relative expression needed,50 fold
B3 (actS 27-251),"amiB (Escherichia coli, UniProt P26365)",amidase activity on sacculi,,"2 µM, pH 5.2","reference: stimulation by EnvC, higher = stronger stimulation",relative stimulation of amidase activity,5 fold
B4 (FGF6),FGFR3 isoform IIIc,"cell proliferation, MTT",BaF3-FGFR3c,"20 nM, 48 h, added: chondroitin sulfate D 4.9 µg/mL","reference: FGF 1 with heparin, higher = more proliferation",cell proliferation,2%
fabF K65A/R127A/K128A (Escherichia coli),"acpP C12-acylated 1-78, C12 acyl on 4'-phosphopantetheine (Escherichia coli, UniProt P0A6A8)","holo-AcpP formation, HPLC",,"10 µM, added: malonyl-CoA",,condensation rate,0.4 min⁻¹
"Ac-GRPCA-NH2 (PTX3 100-104 A100G, N-acetyl/C-terminal amide (Homo sapiens); N-acetyl/C-terminal amide)",FGF2 18 kD form (Homo sapiens),"cell proliferation, antagonist","peptide, GM7373","3-1000 µM, added: FGF2 0.55 nM",,ID50,15 µM
"TFPI endogenous, on cells (Homo sapiens, UniProt P10646)",F10 factor Xa,factor Xa inhibition,HUVEC,"100 µg/mL total protein, initial, methyl-β-cyclodextrin",,free factor Xa,0.09 nM
B5 (U2AF1),"U2AF2 (Homo sapiens, UniProt P26368)",two-hybrid,yeast EGY48,30 °C,"reference: empty prey vector, higher = stronger interaction",two-hybrid β-galactosidase activity,124 fold over background
"F10 activated, mature, active site blocked (Homo sapiens)","PROCR (Homo sapiens, UniProt Q9UNN8)","cell surface binding, cell surface binding ELISA",EA.hy926,"3 h, 4 °C",,EC50,0.03 µM
B6 (L3MBTL3 1-523),"Rbpj 53-474 (Mus musculus, UniProt P31266)",ITC,,"pH 6.5, 25 °C, NaCl 150 mM",,ΔH,-44.4 kJ/mol
"STIM1 (Homo sapiens, UniProt Q13586)","ORAI1 (Homo sapiens, UniProt Q96D31)","I_CRAC block, whole-cell patch clamp",HEK293T,added: CPA,,temperature for half block,36.9 °C
clpX fragment (Thermus thermophilus),"clpP 1-194 (Thermus thermophilus, UniProt Q5SKM8)","peptidase activity, activator",,added: bortezomib,,half-maximal activation concentration,120 nM
B7 (RAD30),"REV1, Cy5 label (Saccharomyces cerevisiae, UniProt P12689)",single-molecule TIRF,,pH 7.5,,koff,0.73 ± 0.02 s⁻¹
"TFPI (Homo sapiens, UniProt P10646-1)",F5 B-domain deleted 811-1490 R709Q/R1545Q (UniProt P12259),prothrombinase activity,,"10 nM, added: UFH",higher = more reversal,reversal of inhibition,50%
"FGF8 (Homo sapiens, UniProt P55075)",FGFR3 isoform IIIc,"cell proliferation, MTT",BaF3-FGFR3c,"20 nM, 48 h, added: heparin 4.9 µg/mL","reference: FGF 1 with heparin, higher = more proliferation",cell proliferation,110%
MMP2 fragment R252A/F297A/R368A (Homo sapiens),"COL1A1/COL1A2 denatured, gelatin (Homo sapiens)","zymography, DQ-gelatin assay",,,"reference: wild type, higher = less cleavage",reduction in gelatin cleavage,90%
"GLP-2 mature, (R,R)-ACPC at 4, C-terminal amide","GLP2R (Homo sapiens, UniProt O95838)","cAMP, agonist",,,"reference: GLP-2, higher = more cAMP",relative cAMP production,57%
"UGT1A9 (Homo sapiens, UniProt O60656)",O=c1cc(-c2ccc(O)cc2)oc2ccccc12,steady-state kinetics,,"pH 7.4, 37 °C",,Vmax,9.87e-05 µmol/min/mg
"pasireotide, D-Trp, Tyr(4-Bzl)","SSTR1 (Homo sapiens, UniProt P30872)","cAMP inhibition, FRET Epac sensor",HEK 293T,,,pIC50,8
YASKGKKRNPGLKIPK (MAP2K6 residues 4-17 (Homo sapiens)),"Mapk14 D315S/D316E/E317A, pT180, pY182 (Rattus norvegicus, UniProt P70618)","kinase activity, inhibitor, competitive kinase inhibition assay",peptide,added: ATP 1 mM,,IC50,16 µM
F8 A2 subunit D666S (human),"F8 A1 and A3C1C2 dimer, factor VIIIa S1787D",FXa generation activity loss,,"1.5 nM, 23 °C",higher = faster decay,decay rate,0.1 min⁻¹
anti-CTLA-4 IgG1 Fc S267E/L328F (Homo sapiens),"FCGR2B (Homo sapiens, UniProt P31994)","IL-2 luciferase reporter, reporter assay",Jurkat with Raji,"8 hr, endogenous FcγRIIB","reference: parental hIgG1 mAb, higher = more potent",potency,7 fold

# Repeated from above:
Substance,tested on,assay,system,conditions,scale,measurement,value
"Syt1 (Mus musculus, UniProt P46096)","Psen1 (Mus musculus, UniProt P49769)",FLIM FRET,young mouse primary neurons,"15 min, added: KCl 50 mM","reference: no KCl, higher = more FRET",FRET efficiency change,1.85 fold
"FGF2 fragment C78S/C96S, C-terminal KCK, vcMMAE on Cys (Homo sapiens)","FGFR1 extracellular domain, Fc fusion 22-376 (UniProt P11362)","cell viability, Alamar Blue",U2OS-R1,96 h,,EC50,0.0167 µM
